# Results from different studies.
# Parts stem from different laboratories: compare values within a part only. “And” joins repeats or separate records; there may be more than shown.
# UniProt P04049, sequence (whole entry, looked up): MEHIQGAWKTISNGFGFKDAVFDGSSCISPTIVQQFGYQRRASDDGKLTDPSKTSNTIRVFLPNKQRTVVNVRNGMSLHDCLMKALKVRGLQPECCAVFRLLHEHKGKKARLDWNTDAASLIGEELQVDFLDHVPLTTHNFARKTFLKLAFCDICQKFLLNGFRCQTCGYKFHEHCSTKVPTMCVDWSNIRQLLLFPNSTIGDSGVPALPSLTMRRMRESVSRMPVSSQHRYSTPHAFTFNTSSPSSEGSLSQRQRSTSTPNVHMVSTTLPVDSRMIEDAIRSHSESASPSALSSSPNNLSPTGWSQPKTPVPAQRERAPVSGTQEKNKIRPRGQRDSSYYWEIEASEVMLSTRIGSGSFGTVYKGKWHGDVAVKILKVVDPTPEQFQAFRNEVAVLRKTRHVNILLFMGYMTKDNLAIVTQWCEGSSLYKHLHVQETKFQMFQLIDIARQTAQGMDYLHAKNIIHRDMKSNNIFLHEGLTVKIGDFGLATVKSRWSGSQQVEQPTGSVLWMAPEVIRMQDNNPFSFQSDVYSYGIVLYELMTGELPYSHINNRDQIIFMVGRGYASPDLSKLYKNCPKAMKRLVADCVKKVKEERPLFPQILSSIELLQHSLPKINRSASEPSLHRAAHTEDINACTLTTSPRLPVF
# UniProt P51813, sequence (whole entry, looked up): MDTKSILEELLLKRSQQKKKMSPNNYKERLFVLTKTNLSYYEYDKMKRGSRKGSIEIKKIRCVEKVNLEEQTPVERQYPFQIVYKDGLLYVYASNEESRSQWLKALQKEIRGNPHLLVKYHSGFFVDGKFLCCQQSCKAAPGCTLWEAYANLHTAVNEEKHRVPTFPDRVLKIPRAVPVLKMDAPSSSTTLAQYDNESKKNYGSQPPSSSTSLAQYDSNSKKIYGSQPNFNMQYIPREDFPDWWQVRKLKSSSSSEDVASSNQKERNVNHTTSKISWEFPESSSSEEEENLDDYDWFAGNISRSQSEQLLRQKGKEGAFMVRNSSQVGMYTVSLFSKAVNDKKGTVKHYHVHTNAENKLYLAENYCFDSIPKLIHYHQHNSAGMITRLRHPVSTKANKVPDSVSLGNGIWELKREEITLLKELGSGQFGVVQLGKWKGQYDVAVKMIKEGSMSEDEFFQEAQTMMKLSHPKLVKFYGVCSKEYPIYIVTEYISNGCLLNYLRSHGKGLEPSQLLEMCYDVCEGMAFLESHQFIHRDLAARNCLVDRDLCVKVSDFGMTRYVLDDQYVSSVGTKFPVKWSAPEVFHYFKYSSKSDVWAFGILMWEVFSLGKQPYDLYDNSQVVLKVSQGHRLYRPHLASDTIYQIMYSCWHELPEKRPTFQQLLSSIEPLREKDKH
# UniProt Q13188, sequence (whole entry, looked up): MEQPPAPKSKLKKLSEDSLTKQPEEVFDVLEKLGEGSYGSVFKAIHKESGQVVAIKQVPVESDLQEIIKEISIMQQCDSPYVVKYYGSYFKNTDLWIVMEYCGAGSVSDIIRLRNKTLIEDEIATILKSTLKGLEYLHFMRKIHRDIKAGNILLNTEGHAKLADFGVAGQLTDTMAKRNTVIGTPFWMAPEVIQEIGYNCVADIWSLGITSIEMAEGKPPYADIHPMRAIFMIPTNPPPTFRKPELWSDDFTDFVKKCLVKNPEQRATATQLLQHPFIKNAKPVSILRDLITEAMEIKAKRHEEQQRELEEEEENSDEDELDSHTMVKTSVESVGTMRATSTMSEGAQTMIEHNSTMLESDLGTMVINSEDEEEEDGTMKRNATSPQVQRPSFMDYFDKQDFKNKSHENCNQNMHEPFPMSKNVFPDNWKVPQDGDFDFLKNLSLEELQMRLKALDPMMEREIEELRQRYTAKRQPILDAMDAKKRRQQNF
# UniProt Q6P2M8, sequence (whole entry, looked up): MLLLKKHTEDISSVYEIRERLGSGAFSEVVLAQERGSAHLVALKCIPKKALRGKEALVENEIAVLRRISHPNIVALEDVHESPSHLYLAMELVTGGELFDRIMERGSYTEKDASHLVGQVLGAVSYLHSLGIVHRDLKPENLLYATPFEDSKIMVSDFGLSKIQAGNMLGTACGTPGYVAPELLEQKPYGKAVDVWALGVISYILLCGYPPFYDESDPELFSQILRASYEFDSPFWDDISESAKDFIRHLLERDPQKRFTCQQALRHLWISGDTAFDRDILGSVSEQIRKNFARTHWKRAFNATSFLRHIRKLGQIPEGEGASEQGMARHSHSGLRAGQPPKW

# Series 1 — mode: inhibitor; concentration: concentration not given; with: without ssDNA
# Target: DNA polymerase theta, helicase domain (POLQ, Homo sapiens, UniProt O75417)
# UniProt O75417, sequence (whole entry, looked up): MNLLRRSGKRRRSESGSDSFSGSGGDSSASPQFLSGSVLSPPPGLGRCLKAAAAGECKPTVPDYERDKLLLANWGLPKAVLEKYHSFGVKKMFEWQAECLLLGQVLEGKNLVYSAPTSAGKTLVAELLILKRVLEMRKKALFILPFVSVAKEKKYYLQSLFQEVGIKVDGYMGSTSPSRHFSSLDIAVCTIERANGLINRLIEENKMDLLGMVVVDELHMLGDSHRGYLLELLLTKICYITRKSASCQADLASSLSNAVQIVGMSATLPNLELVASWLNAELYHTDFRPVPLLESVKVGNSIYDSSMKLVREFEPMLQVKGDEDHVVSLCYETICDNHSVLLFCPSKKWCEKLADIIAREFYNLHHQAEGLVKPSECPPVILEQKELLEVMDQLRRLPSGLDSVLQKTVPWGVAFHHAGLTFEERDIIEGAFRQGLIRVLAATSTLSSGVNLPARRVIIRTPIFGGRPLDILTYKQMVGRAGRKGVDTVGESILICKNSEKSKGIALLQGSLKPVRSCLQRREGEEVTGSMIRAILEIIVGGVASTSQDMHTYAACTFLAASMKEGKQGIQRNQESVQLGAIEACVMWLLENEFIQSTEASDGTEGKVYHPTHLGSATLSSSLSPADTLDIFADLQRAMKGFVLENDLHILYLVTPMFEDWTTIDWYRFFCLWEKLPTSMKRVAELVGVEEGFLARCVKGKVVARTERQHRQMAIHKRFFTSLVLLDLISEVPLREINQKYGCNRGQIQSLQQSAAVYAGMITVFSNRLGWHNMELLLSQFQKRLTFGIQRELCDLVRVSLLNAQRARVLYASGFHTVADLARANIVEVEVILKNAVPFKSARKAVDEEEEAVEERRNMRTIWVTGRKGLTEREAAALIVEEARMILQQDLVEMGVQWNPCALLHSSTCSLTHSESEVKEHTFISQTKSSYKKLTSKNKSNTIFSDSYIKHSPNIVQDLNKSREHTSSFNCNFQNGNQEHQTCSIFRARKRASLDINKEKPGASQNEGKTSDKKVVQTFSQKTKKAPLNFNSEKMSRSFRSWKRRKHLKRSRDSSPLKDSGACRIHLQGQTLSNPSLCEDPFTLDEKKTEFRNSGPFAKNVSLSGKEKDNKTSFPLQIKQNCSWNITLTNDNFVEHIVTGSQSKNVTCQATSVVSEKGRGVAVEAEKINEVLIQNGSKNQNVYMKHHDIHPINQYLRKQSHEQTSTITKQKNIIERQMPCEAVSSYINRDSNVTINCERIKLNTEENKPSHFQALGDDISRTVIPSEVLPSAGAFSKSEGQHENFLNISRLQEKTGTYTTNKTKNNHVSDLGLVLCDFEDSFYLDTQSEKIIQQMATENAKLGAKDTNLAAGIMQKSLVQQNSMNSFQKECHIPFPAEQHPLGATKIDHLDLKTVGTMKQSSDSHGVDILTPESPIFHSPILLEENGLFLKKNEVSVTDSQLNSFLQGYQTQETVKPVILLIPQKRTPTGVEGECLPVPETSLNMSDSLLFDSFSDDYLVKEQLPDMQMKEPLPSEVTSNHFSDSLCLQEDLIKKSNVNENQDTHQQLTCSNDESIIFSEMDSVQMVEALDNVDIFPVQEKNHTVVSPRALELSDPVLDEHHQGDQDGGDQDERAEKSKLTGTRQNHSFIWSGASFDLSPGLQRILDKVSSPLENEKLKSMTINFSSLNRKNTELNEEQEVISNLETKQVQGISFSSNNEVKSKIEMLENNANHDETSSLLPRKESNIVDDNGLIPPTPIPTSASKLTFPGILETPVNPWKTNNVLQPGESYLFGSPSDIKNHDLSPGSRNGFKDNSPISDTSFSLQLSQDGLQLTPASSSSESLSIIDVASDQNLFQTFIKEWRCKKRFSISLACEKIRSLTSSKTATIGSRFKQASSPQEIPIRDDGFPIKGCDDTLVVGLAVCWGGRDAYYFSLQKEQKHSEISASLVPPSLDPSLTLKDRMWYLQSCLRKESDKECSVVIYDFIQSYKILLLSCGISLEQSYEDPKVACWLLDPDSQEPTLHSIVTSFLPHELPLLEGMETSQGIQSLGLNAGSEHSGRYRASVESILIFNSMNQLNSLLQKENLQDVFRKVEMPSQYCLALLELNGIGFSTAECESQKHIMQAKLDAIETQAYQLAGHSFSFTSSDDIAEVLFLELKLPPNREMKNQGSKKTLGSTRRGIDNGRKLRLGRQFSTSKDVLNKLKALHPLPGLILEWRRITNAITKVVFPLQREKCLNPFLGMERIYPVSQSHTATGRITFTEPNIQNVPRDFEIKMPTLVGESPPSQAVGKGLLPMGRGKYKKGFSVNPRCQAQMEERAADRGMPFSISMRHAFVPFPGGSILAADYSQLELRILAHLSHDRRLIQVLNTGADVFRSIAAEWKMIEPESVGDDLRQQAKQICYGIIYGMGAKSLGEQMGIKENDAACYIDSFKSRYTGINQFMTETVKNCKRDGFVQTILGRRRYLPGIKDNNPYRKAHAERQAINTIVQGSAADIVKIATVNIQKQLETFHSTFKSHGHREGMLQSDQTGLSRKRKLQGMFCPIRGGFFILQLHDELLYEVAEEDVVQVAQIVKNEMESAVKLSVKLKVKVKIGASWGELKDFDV
SMILES,remaining activity
C/C(O)=C(\C#N)C(=O)Nc1ccc(C(F)(F)F)cc1,34.8% and 34.2%
COc1ccc(C(=O)Nc2noc3ccccc23)cc1,65.8% and 61.8%
CCCCCCCCCCCCc1ccc(S(=O)(=O)Nc2nncs2)cc1,93.9% and 91%
O=C1c2c(O)ccc(O)c2C(=O)c2c(NCCNCCO)ccc(NCCNCCO)c21,94.1% and 93.4%
Cc1ccc(C(=O)Nc2ccc(S(=O)(=O)[O-])c3cc(S(=O)(=O)[O-])cc(S(=O)(=O)[O-])c23)cc1NC(=O)c1cccc(NC(=O)Nc2cccc(C(=O)Nc3cc(C(=O)Nc4ccc(S(=O)(=O)[O-])c5cc(S(=O)(=O)[O-])cc(S(=O)(=O)[O-])c45)ccc3C)c2)c1.[Na+].[Na+].[Na+].[Na+].[Na+].[Na+],14.7% and 14.3%
CCOc1nc2cccc(C(=O)OCc3oc(=O)oc3C)c2n1Cc1ccc(-c2ccccc2-c2noc(=O)[nH]2)cc1,56.4% and 52.7%
O=C(Nc1ccccc1F)c1ccc2c(Cl)c3c(nc2c1)CCC3,82.5% and 85.9%
CCCCCCCCCCCCCCCC(=O)OC[C@H](O)[C@H]1OC(=O)C(O)=C1O,42.5% and 43.8%

# Series 2 — SMILES: COc1cccc(-c2cc(=O)c3ccccc3o2)c1N; effect on: enzyme activity; mode: inhibitor; concentration: 0.5 µM; reference: control
target,remaining activity
"ULK1 (Homo sapiens, UniProt O75385)",104%
"FGFR2 (Homo sapiens, UniProt P21802)",97.8%
"NTRK2 (Homo sapiens, UniProt Q16620)",65.4%
"MAP3K9 (Homo sapiens, UniProt P80192)",93.2%
"RIPK2 (Homo sapiens, UniProt O43353)",87.5%
"TNK2 (Homo sapiens, UniProt Q07912)",79.9%
"HCK (Homo sapiens, UniProt P08631)",91.6%
"VRK1 (Homo sapiens, UniProt Q99986)",89.4%
"PHKG2 (Homo sapiens, UniProt P15735)",117%
"PDGFRB (Homo sapiens, UniProt P09619)",99.4%
"TAOK1 (Homo sapiens, UniProt Q7L7X3)",77.9%
"INSRR (Homo sapiens, UniProt P14616)",98.4%
"PRKD3 (Homo sapiens, UniProt O94806)",94.3%
"RAF1 (Homo sapiens, UniProt P04049)",91.5%
"DYRK2 (Homo sapiens, UniProt Q92630)",92.5%
"PLK1 (Homo sapiens, UniProt P53350)",88.2%
"SGK3 (Homo sapiens, UniProt Q96BR1)",101%
"MAP4K5 (Homo sapiens, UniProt Q9Y4K4)",91.1%
"ACVR1 (Homo sapiens, UniProt Q04771)",92.7%

# Series 3 — effect on: cell-free assay; technique: competition with immobilised ligand; concentration: 1 µM
# SMILES: CCC(=O)N[C@H]1CC[C@@H](C(=O)N(C)c2ccc(-c3nc4ccccc4o3)cc2)C1
target,remaining binding
"AXL (Homo sapiens, UniProt P30530)",87%
"DDR1 (Homo sapiens, UniProt Q08345)",100%
"TNNI3K (Homo sapiens, UniProt Q59H18)",100%
"TNK1 (Homo sapiens, UniProt Q13470)",100%
"BMX (Homo sapiens, UniProt P51813)",100%
"PNCK (Homo sapiens, UniProt Q6P2M8)",92%
"CAMK1 (Homo sapiens, UniProt Q14012)",95%
"Receptor-type tyrosine-protein kinase FLT3, autoinhibited (FLT3, Homo sapiens, UniProt P36888)",85%
"GAK (Homo sapiens, UniProt O14976)",100%
"EPHA2 (Homo sapiens, UniProt P29317)",100%
"CLK1 (Homo sapiens, UniProt P49759)",93%
"STK3 (Homo sapiens, UniProt Q13188)",100%
"MAP4K4 (Homo sapiens, UniProt O95819)",91%
"LTK (Homo sapiens, UniProt P29376)",100%
"MAPK6 (Homo sapiens, UniProt Q16659)",100%
"RAF1 (Homo sapiens, UniProt P04049)",100%

# Series 4 — organism: Sarcocystis neurona; effect on: parasite growth; concentration: 10 µM; time: 96 h
Structure (SMILES),inhibition
CC(=O)CCCCn1c(=O)c2c(ncn2C)n(C)c1=O,-7.9%
CCCNC(C)C(=O)Nc1ccccc1C (stereo not shown),-7.4%
CCOC(=O)C1=C(COCCN)NC(C)=C(C(=O)OC)C1c1ccccc1Cl (stereo not shown),-3.8%
Oc1ncnc2[nH]ncc12,-17.5%
NS(=O)(=O)c1cc2c(cc1Cl)N=CNS2(=O)=O,-4.8%
CN(C)CC[C@@H](c1ccc(Cl)cc1)c1ccccn1,-14.5%
CO[C@H]1/C=C/O[C@@]2(C)Oc3c(C)c(O)c4c(O)c(c(/C=N/N5CCN(C6CCCC6)CC5)c(O)c4c3C2=O)NC(=O)/C(C)=C\C=C\[C@H](C)[C@H](O)[C@@H](C)[C@@H](O)[C@@H](C)[C@H](OC(C)=O)[C@@H]1C,-0.5%
CCCN1C[C@H](CSC)C[C@@H]2c3cccc4[nH]cc(c34)C[C@H]21,-12.1%
CC1=NS(=O)(=O)c2cc(Cl)ccc2N1,-9.4%
CCOC(=O)N1CCC(=C2c3ccc(Cl)cc3CCc3cccnc32)CC1,-5.8%
CC(C)(C)NC(=O)[C@@H]1CN(Cc2cccnc2)CCN1C[C@@H](O)C[C@@H](Cc1ccccc1)C(=O)N[C@H]1c2ccccc2C[C@H]1O,-13.9%
Nc1ccn([C@@H]2CS[C@H](CO)O2)c(=O)n1,-9.7%
Nc1ncnc2c1ncn2[C@@H]1O[C@H](CO)[C@@H](O)[C@@H]1O,-14.7%
CN1CCC(=C2c3ccccc3CC(=O)c3sccc32)CC1,-13.2%
Cc1onc(-c2ccccc2)c1-c1ccc(S(N)(=O)=O)cc1,-15.7%
CC12CC3CC(C)(C1)CC(N)(C3)C2,-11.8%
COc1cc(C(=O)NS(=O)(=O)c2ccccc2C)ccc1Cc1cn(C)c2ccc(NC(=O)OC3CCCC3)cc12,-12.4%
CN(CCOc1ccc(NS(C)(=O)=O)cc1)CCc1ccc(NS(C)(=O)=O)cc1,-10.1%
Nc1nc2c(ncn2CCC(CO)CO)c(=O)[nH]1,-14.9%
O=C(O)c1cc(-c2ccc(F)cc2F)ccc1O,-13.9%
CN(C)CCCSc1ccccc1NC(=O)/C=C/c1ccccc1,-5.6%
CCOc1ccc2ccccc2c1C(=O)N[C@@H]1C(=O)N2[C@@H]1SC(C)(C)[C@@H]2C(=O)O,-13%
CC1(C)O[C@@H]2[C@@H](CO[C@@]3(COS(N)(=O)=O)OC(C)(C)O[C@@H]23)O1,-12.5%
CN(C)CCc1c[nH]c2ccc(Cn3cncn3)cc12,-16.7%

# Some of these lines once more (series 4):
Structure (SMILES),inhibition
CCOC(=O)C1=C(COCCN)NC(C)=C(C(=O)OC)C1c1ccccc1Cl (stereo not shown),-3.8%
Oc1ncnc2[nH]ncc12,-17.5%
NS(=O)(=O)c1cc2c(cc1Cl)N=CNS2(=O)=O,-4.8%
CN(C)CC[C@@H](c1ccc(Cl)cc1)c1ccccn1,-14.5%
